Measured values from different studies.
Compare with care: the assays were run in different laboratories. ± marks the error that the study gave.
ALB: Albumin (ALB, Bos taurus, UniProt P02769)
FOLH1: Glutamate carboxypeptidase 2 (FOLH1, Homo sapiens, UniProt Q04609)
T1: dsDNA hairpin, hairpin; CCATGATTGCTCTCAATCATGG

SMILES	target	assay	system	conditions	how to read	measurement	value
COc1c(O)cc(-c2oc3cc(O)cc(O)c3c(=O)c2O[C@@H]2O[C@@H](C)[C@H](O)[C@@H](O)[C@H]2O)cc1O	alpha-glucosidase Saccharomyces cerevisiae	inhibitor		concentration not given		activity	inactive
C[n+]1cn(C2OC(COP(=O)(O)OP(=O)([O-])OP(=O)(O)OCC3OC(n4cnc5c(=O)[nH]c(N)nc54)C(O)C3O)C(O)C2O)c2nc(NCc3ccc(Cl)cc3)[nH]c(=O)c21 (stereo not drawn)	NUDT16 (Homo sapiens, UniProt Q96DE0)	decapping, substrate	capped RNA transcribed by SP6 polymerase	concentration not given, 30 min		cap hydrolysis	26.4%
CCCCCCCCCCCC(=O)Nc1ccccc1SSc1ccccc1NC(=O)CCCCCCCCCCC	ALB	binding, van't Hoff		concentration not given, 298-313 K		enthalpy change	-154 kcal/mol
N=C(N)c1ccc(-c2ccc(-c3ccc(-c4ccc(C(=N)N)cc4)[se]3)[se]2)cc1	T1, dsDNA hairpin, hairpin	UV melting		6 µM, pH 6.25, Na+ 100 mM	reference: target alone, higher = more stabilisation	melting temperature shift	5.3 °C
Nc1ncnc2c1ncn2[C@@H]1O[C@H](CO)[C@@H](O[C@H]2O[C@H](CO)[C@@H](OP(=O)(O)O)[C@H](OP(=O)(O)O)[C@H]2O)[C@H]1O	Inositol 1,4,5-trisphosphate-gated calcium channel ITPR1 (Itpr1, Rattus norvegicus, UniProt P29994, del318-332/R568Q)	Ca2+ release, agonist	permeabilized DT40 cells			Hill coefficient	1.7 ± 0.4
O=C(O)c1cccc(-c2ccccc2O[C@@H]2O[C@H](CO)[C@H](O)[C@H](O)[C@H]2O)c1	Adhesin FmlH, lectin domain (Escherichia coli, UniProt Q1RBS0)	inhibitor, competitive bio-layer interferometry	UPEC UTI89	added: immobilized Ser-TF	reference: compound over galactose	affinity enhancement over galactose	~330 fold
COc1cc(C(=O)NC2CCC(N3CCN(CC4CCC5(CCCC5)C4)CC3)CC2)c(F)cc1Nc1ncc2c(n1)N(C1CCCC1(F)F)CC(F)(F)C(=O)N2C (stereo not drawn)	Serine/threonine-protein kinase PLK2 (PLK2, Homo sapiens, UniProt Q9NYY3)	cell-free assay, TR-FRET		10 µM		inhibition	0.73%
Cc1cccc(Cn2ncc3c4cc(F)c(CN(C)C)cc4n(C)c3c2=O)n1	Pyruvate kinase PKM (PKM, Homo sapiens, UniProt P14618)	ITC		pH 7.5, 25 °C		ΔH	-7.89 ± 0.459 kcal/mol
NS(=O)(=O)c1cc(C(=O)NCCCC(=O)O)c(S(=O)(=O)c2ccccc2)cc1Cl	Carbonic anhydrase 12 (CA12, Homo sapiens, UniProt O43570)	thermal shift			reference: Kd CA XII over Kd CA II	selectivity ratio	0.4
COC(=O)c1cnc(-c2cnccn2)cc1C(=O)OC.COC(=O)c1cnc(-c2cnccn2)cc1C(=O)OC.F[P-](F)(F)(F)(F)F.[Ag+]	ALB	fluorescence quenching				binding constant	3.08e+06 M⁻¹
N=C(N)NCCC[C@H](NC(=O)[C@H](CC(=O)O)NC(=O)[C@@H]1CSCC(=O)NCC(=O)N[C@@H](Cc2c[nH]cn2)C(=O)N[C@H](Cc2ccccc2)C(=O)N[C@@H](CCCNC(=N)N)C(=O)N[C@H](Cc2c[nH]c3ccccc23)C(=O)N1)C(=O)N[C@@H](Cc1ccccc1)C(=O)NCC(N)=O	Melanocortin receptor 4 (MC4R, Homo sapiens, UniProt P32245)	cAMP accumulation	HEK293 expressing MC4R	concentration not given		functional activity	inactive
CC[C@H](C)[C@@H]1NC(=O)[C@H](Cc2ccccc2)NC(=O)[C@H](CC(=O)O)NC(=O)[C@H](CCCNC(=N)N)NC(=O)[C@H](Cc2ccccc2)NC(=O)[C@H](Cc2ccccc2)NC(=O)[C@@H](NC(=O)[C@H](CO)NC(=O)[C@H](CC(C)C)NC(=O)[C@H](CCCNC(=N)N)NC(=O)[C@H](CCSC)NC(=O)[C@H](C)N)CCCNC(=O)NCCCC[C@@H](C(=O)N[C@@H](CCC(N)=O)C(=O)N[C@@H](CCCNC(=N)N)C(=O)N[C@@H](CCCCN)C(=O)N[C@@H](CCCCN)C(=O)O)NC1=O	histidine kinase ComD (Streptococcus pneumoniae serotype 2, UniProt A0A0H2ZM50)	reporter gene, antagonist	Streptococcus pneumoniae, D39 pcomX::lacZ		reference: over CSP1-E1A	IC50 ratio	5 fold
O=C([O-])CN1CCN(CC(=O)[O-])CCN(C(CCC(=O)NCCCCCN(CCCC[C@H](NC(=O)N[C@@H](CCC(=O)O)C(=O)O)C(=O)O)C(=O)c2ccc(I)cc2)C(=O)O)CCN(CC(=O)[O-])CC1.[68Ga+3] (stereo partly drawn)	FOLH1	PET/CT	human, liver metastasis			SUVmax	~6.9
O=C(Nc1ccc(N2C(=O)c3ccc(F)cc3C2=O)c(Cl)c1)c1ncccc1Cl	Metabotropic glutamate receptor 1 (GRM1, Homo sapiens, UniProt Q13255)	calcium signal, positive allosteric modulator	T-REx-293			Emax	128%
Cc1ccccc1-c1cc(N2CCN(C(=O)CCC(=O)O)CC2)ccc1N(C)C(=O)C(C)(C)c1cc(C(F)(F)F)cc(C(F)(F)F)c1	Substance-P receptor (TACR1, Homo sapiens, UniProt P25103)	antagonist, BRET	HEK293T	10 µM, added: substance P, added 5 min before		inhibition rate constant	0.11 ± 0.01 min⁻¹
O=C(CCC1CO1)Oc1ccc([N+](=O)[O-])cc1 (racemic)	Epoxide hydrolase 1 (EPHX1, Homo sapiens, UniProt P07099)	substrate, absorbance		50 µM, pH 9.0, 37 °C, human enzyme		signal to noise ratio	> 40
CN(CC(=O)c1ccc2[nH]c(=O)[nH]c2c1)Cc1ccco1	DNA dC->dU-editing enzyme APOBEC-3G (APOBEC3G, Homo sapiens, UniProt Q9HC16)	deaminase activity, inhibitor, alkaline cleavage	purified, expressed in 293T	700 µM		remaining activity	37%
COc1cc(N2CCN(C(=O)C3CCCN3)CC2)ccc1Nc1ncc(Cl)c(Nc2ccccc2P(C)(C)=O)n1 (stereo not drawn)	ALK tyrosine kinase receptor/Echinoderm microtubule-associated protein-like 4 (Homo sapiens, UniProt Q9HC35+Q9UM73)	label-free proteomics, measured: ALK tyrosine kinase receptor/Echinoderm microtubule-associated protein-like 4	H3122	500 nM, 12 h		fold reduction of protein abundance	> 40 fold

SMILES	target	assay	system	conditions	how to read	measurement	value
O=C(O)CCC(NC(=O)NC(CCCCNC(=O)C(Cc1ccc2ccccc2c1)NC(=O)C1CCC(CNC(=S)Nc2ccc(CC(CN(CC(=O)O)C3CCCCC3N(CC(=O)O)CC(=O)O)N(CC(=O)O)CC(=O)O)cc2)CC1)C(=O)O)C(=O)O (stereo not drawn)	FOLH1		LNCaP	30 nM, 45 min, 177Lu-labelled		internalized amount	17.4 ± 10.8%
C=CCC(=N)NCCC[C@H](N)C(=O)O	Nitric oxide synthase 3 (Nos3, Mus musculus, UniProt P70313)	ACh-evoked cGMP accumulation, inhibitor	adult mouse aortic rings	fixed for fitting		Hill slope	1
CC(=O)N[C@@H](CC(N)=O)C(=O)N[C@@H](CCCNC(=N)N)C(=O)N[C@@H](CCCNC(=N)N)C(=O)N[C@@H](CC(N)=O)C(=O)N[C@H](C(=O)N[C@@H](C)C(=O)N[C@@H](CC(N)=O)C(=O)N[C@@H](CCN1C(=O)c2ccc(N(C)C)cc2C1=O)C(=O)N[C@@H](CCCNC(=N)N)C(=O)N[C@H](C(=O)N[C@H](C(=O)N1CCC[C@H]1C(=O)N[C@H](C(=O)O)C(C)C)[C@@H](C)O)[C@@H](C)O)[C@@H](C)O	Disks large homolog 4, PDZ3 domain (Homo sapiens, UniProt P78352)	PDZ domain binding, fluorescence emission intensity	PSD-95 PDZ3 domain	4-DMAP-Dab at position -5	reference: probe without PDZ domain	relative fluorescence increase	62.6
CCCCCCOc1ccc(C(=O)OCC[N+]2(C)CC=CCC2)cc1 (stereo not drawn)	Muscarinic acetylcholine receptor M4 (CHRM4, Homo sapiens, UniProt P08173)	antagonist, measured: inositol phosphates	CHO co-expressing G15	added: carbachol		cooperativity factor	0.0012 ± 0.0002
CNc1ccccc1C(=O)O[C@H]1C[C@H](n2cnc3c(N)ncnc32)O[C@@H]1COP(=O)(O)OP(=O)(O)O	Unconventional myosin-Va (Gallus gallus, UniProt Q02440, D297C/G292C/I296C/S293C/V295G)	stopped-flow FRET		25 °C, added: MgCl2 2 mM		dissociation rate constant	12.6 ± 0.1 s⁻¹
CC(C)(C)CCN1C[C@@H]2[C@@H](CNC(=O)c3cc(Cl)cc(Cl)c3)[C@@H]2C1.Cl	Voltage-dependent L-type calcium channel subunit alpha-1F (Homo sapiens, UniProt O60840)	calcium current, whole-cell patch clamp	HEK-293T cells	5 µM, holding potential -90 mV, added: β2 and α2δ subunits		half-activation voltage	-4.19 ± 0.46 mV
COc1ccc(C(SCC(N)C(=O)O)(c2ccccc2)c2ccccc2)cc1 (stereo not drawn)	Kinesin-like protein KIF11, motor domain (KIF11, Homo sapiens, UniProt P52732)	ITC		25 °C		-TΔS	5.5 kcal/mol
O=C(c1cc2c(s1)CCCCC2)N1CCC(n2c(=O)[nH]c3ccccc32)CC1	Short transient receptor potential channel 6 (Trpc6, Mus musculus, UniProt Q61143, E671C)	ion current, agonist, whole-cell patch clamp		concentration not given, E671C mutant, added: DTNB 2 mM		activation	inhibited
CC(=O)[O-].O.O.O.O.[Co+2].[O-]c1ccc(Br)cc1C=NCCN1CCOCC1	ALB	absorption titration		concentration not given, 25 °C		hyperchromism	65.6%
CNc1nc2c(c(=O)[nH]1)[n+](C)cn2[C@@H]1O[C@H](COP(=O)(O)OP(=O)(O)OP(=O)(O)OC[C@H]2O[C@@H](n3cnc4c(=O)[nH]c(N)nc43)[C@H](O)[C@@H]2O)[C@@H](O)[C@H]1O	m7GpppX diphosphatase (DCPS, Homo sapiens, UniProt Q96C86)	decapping, substrate, HPLC		concentration not given		initial hydrolysis rate	1.91 ± 0.18 µM/min
CC(=O)N[C@@H](Cc1c[nH]c2ccccc12)C(=O)N[C@@H](Cc1c[nH]c2ccccc12)C(=O)N[C@@H](Cc1c[nH]c2ccccc12)C(=O)N[C@@H](Cc1c[nH]c2ccccc12)C(=O)N[C@@H](Cc1c[nH]c2ccccc12)C(=O)N[C@@H](Cc1c[nH]c2ccccc12)C(=O)N[C@@H](Cc1c[nH]c2ccccc12)C(=O)NCCCC[C@@H]1NC(=O)[C@H](CCCNC(=N)N)NC(=O)[C@H](CCCNC(=N)N)NC(=O)[C@H](CCCNC(=N)N)NC(=O)[C@H](CCCNC(=N)N)NC(=O)[C@H](CCCNC(=N)N)NC1=O	Tyrosine-protein kinase ABL1 (ABL1, Homo sapiens, UniProt P00519)	enzyme activity, inhibitor, radiometric		5 µM		remaining activity	17.1%
[3H]C([3H])([3H])c1cnccc1CN1C[C@@H](c2cc(F)c(F)c(F)c2)CC1=O	Synaptic vesicle glycoprotein 2A (SV2A, Homo sapiens, UniProt Q7L0J3)	radioligand binding, autoradiography	human, post-mortem frontal lobe	2 nM		total binding	104 fmol/mg
CO[C@@H]1O[C@H](CO)[C@@H](O[C@H]2O[C@H](CO)[C@@H](OP(=O)(O)O)[C@H](OP(=O)(O)O)[C@H]2O)[C@H]1OP(=O)(O)O	Inositol 1,4,5-trisphosphate-gated calcium channel ITPR1, N-terminal region (Itpr1, Rattus norvegicus, UniProt P29994, del318-332/R504Q)	[3H]IP3 competition binding		N-terminal fragment R504Q		Hill coefficient	0.9 ± 0.1
CCc1nc2cc3ccccc3cc2cc1C(=O)N1CCC[C@H]1C(=O)N[C@@H](CCC/C=C/CCC[C@H](NC(=O)[C@@H]1CCCN1C(=O)c1cc2cc3ccccc3cc2nc1CC)C(=O)N[C@@H](CCCCN)C(=O)NCCCN)C(=O)N[C@@H](CCCCN)C(=O)NCCCN	(CUG)2 RNA	SPR				residence time	109 s
[11CH3]Nc1ccc(-c2nc3ccc(O)cc3o2)cn1	Amyloid-beta precursor protein (APP, Homo sapiens, UniProt P05067)	binding, PET	Alzheimer's disease patients, lateral temporal cortex	unit not given	reference: control subjects	effect size of DVR	5.37
NS(=O)(=O)c1ccc(N2N=C(C(F)(F)F)CC2c2ccc(F)cc2F)cc1 (stereo not drawn)	Cyclooxygenase-2 (Canis lupus familiaris, UniProt Q8SPQ9)	PGE2 formation, inhibitor	dog whole blood	added: LPS		Hill coefficient	4.3
O=C1CCC(N2Cc3c(NCc4ccc(CN5CCOCC5)cc4)cccc3C2=O)C(=O)N1 (stereo not drawn)	Zinc finger protein Aiolos (Homo sapiens, UniProt Q9UKT9)	degrader, western blot	OPM-2	10 µM, 24 h		degradation	93%
CC(C)CN(CC(=O)N1CCN(CC(OCc2ccc3ccccc3c2)c2ccc(Cl)cc2Cl)CC1)CC(C)C (stereo not drawn)	Serine/threonine-protein kinase ULK1 (ULK1, Homo sapiens, UniProt O75385)	enzyme activity, inhibitor, ADP detection		0.1 µM		activity vs control	196%

A few entries again:
SMILES	target	assay	system	conditions	how to read	measurement	value
COc1ccc(C(SCC(N)C(=O)O)(c2ccccc2)c2ccccc2)cc1 (stereo not drawn)	Kinesin-like protein KIF11, motor domain (KIF11, Homo sapiens, UniProt P52732)	ITC		25 °C		-TΔS	5.5 kcal/mol
O=C(c1cc2c(s1)CCCCC2)N1CCC(n2c(=O)[nH]c3ccccc32)CC1	Short transient receptor potential channel 6 (Trpc6, Mus musculus, UniProt Q61143, E671C)	ion current, agonist, whole-cell patch clamp		concentration not given, E671C mutant, added: DTNB 2 mM		activation	inhibited
CC(=O)[O-].O.O.O.O.[Co+2].[O-]c1ccc(Br)cc1C=NCCN1CCOCC1	ALB	absorption titration		concentration not given, 25 °C		hyperchromism	65.6%
CNc1nc2c(c(=O)[nH]1)[n+](C)cn2[C@@H]1O[C@H](COP(=O)(O)OP(=O)(O)OP(=O)(O)OC[C@H]2O[C@@H](n3cnc4c(=O)[nH]c(N)nc43)[C@H](O)[C@@H]2O)[C@@H](O)[C@H]1O	m7GpppX diphosphatase (DCPS, Homo sapiens, UniProt Q96C86)	decapping, substrate, HPLC		concentration not given		initial hydrolysis rate	1.91 ± 0.18 µM/min
CC(=O)N[C@@H](Cc1c[nH]c2ccccc12)C(=O)N[C@@H](Cc1c[nH]c2ccccc12)C(=O)N[C@@H](Cc1c[nH]c2ccccc12)C(=O)N[C@@H](Cc1c[nH]c2ccccc12)C(=O)N[C@@H](Cc1c[nH]c2ccccc12)C(=O)N[C@@H](Cc1c[nH]c2ccccc12)C(=O)N[C@@H](Cc1c[nH]c2ccccc12)C(=O)NCCCC[C@@H]1NC(=O)[C@H](CCCNC(=N)N)NC(=O)[C@H](CCCNC(=N)N)NC(=O)[C@H](CCCNC(=N)N)NC(=O)[C@H](CCCNC(=N)N)NC(=O)[C@H](CCCNC(=N)N)NC1=O	Tyrosine-protein kinase ABL1 (ABL1, Homo sapiens, UniProt P00519)	enzyme activity, inhibitor, radiometric		5 µM		remaining activity	17.1%
